Assay results from different studies.
Each numbered part is a random draw from the data of one study; scales do not carry over between parts.

Series 1
Target: Prothrombin, mature alpha-thrombin (F2, Homo sapiens, UniProt P00734)
Method: aptamer microarray, sandwich
Form: DNA with 2'F-ANA
Matrix: in vitro
Concentration: 200 nM
Notes: whole 15-mer aptamer, many near background
Added: Cy3 exosite-II aptamer, 400 nM
Direction: higher = stronger binding
Measurement: mean fluorescence intensity
Oligonucleotide: GGTTGGTGTGGTTGG
2'F-ANA at 1 4 8 9 10 15: 49.1 a.u.
2'F-ANA at 2 3 4 5 6 10 12 13 15: 89.5 a.u.
2'F-ANA at 1 3 5 6 11 12 13 15: 74.6 a.u.
2'F-ANA at 1 2 4 5 11 12 13 14: 160 a.u.
2'F-ANA at 1 2 7 9 14 15: 61.7 a.u.
2'F-ANA at 6 7 10 11 12 14: 110 a.u.
2'F-ANA at 2 9 10 13 15: 104 a.u.
2'F-ANA at 1 2 3 4 5 6 7 8 10 11 14 15: 54 a.u.
2'F-ANA at 1 2 3 5 6 7 8 10 12 14 15: 58.2 a.u.
2'F-ANA at 2 3 5 6 7 8 10 11 12 14: 60.9 a.u.
2'F-ANA at 4 6 11 14: 78.6 a.u.
2'F-ANA at 1 2 7 9 11 14 15: 53.9 a.u.
2'F-ANA at 1 2 3 5 6 7 9 10 14 15: 44.7 a.u.
2'F-ANA at 1 2 3 4 5 7 8 12: 157 a.u.
2'F-ANA at 1 5 6 8 9 10 13 14 15: 49.4 a.u.
2'F-ANA at 1 11 12 13: 323 a.u.
2'F-ANA at 1 5 10 11 12 13: 48.3 a.u.
2'F-ANA at 1 3 5 6 9 11 12 14: 47.9 a.u.
2'F-ANA at 2 4 5 6 7 8 9 10 14 15: 132 a.u.
2'F-ANA at 2 3 4 7 8 10 11 12 14 15: 174 a.u.
2'F-ANA at 3 8 9 11 14: 641 a.u.

Series 2
Target: RNA binding protein fox-1 homolog 2, RRM domain, GST-SBP tag (RBFOX2, Homo sapiens, UniProt O43251-10, residues 100-194)
Method: RNA Bind-n-Seq
Form: RNA
Matrix: in vitro
Concentration: 365 nM
Notes: natural RNA segment, single round, ends assumed
Reference: no-protein control
Direction: higher = stronger binding
Measurement: RBNS enrichment (R)
Constant ends, left off below: GGGAGUUCUACAGUCCGACGAUC … UGGAAUUCUCGGGUGCCAA
Target sequence (chain): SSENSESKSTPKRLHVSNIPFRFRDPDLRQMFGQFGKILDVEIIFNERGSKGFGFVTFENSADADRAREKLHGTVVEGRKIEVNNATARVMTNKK
AUGGCUGGCAGCCAGAUCCUGGGGCAACCCAUCUGGUCUCUUGAAUAAAGGUCAAAGCUGGAUUCUCACCAUAGCCUCUGUCUCUCUUGUCCCGUCCCAGACAGUGGGCC: 0.354
AUUUGGGUUUCUGAAGUACAAGUAUUGAGCAACAUGAAGGGCAGUGUUGCCCAGCUCAGGGUGUCUGCUUGGUGGCUCUAACCCCUGCCCAUCCAGUUGUUUCUGGGCUG: 0.54
CUGAGGCCUGUGGAAAUAAACCUUUAUGUACUUAAAGUUAUACAGAAAAUAGAAUAAAGUUAAUACCAAACUUGCUUAGUUGUUUACCUGUGAUAUUGGCUGUACAGAAA: 0.375
CAUUUAUCAGGGAAAACUGAAAGCAUUUUUCUUAUAACUUUUUUUCUUUUUCUUUUUUUUUGGAGGGGGGAGGCAGGGUCUUGCUCUGUCCCUCAGGCUGGAGCUUAGCU: 0.337
UCUAAUGGUCCUUUAAAAAUGUCUGUAUUAAAAUUUAAGAAUACCACACUUUAAUAUUAAAUAUCAUAAGGUCUAGUAUCUUGAUAAUAAUGUAGAUGUUUUAAUAACAA: 0.376
GCUUUCUCACCCAAGUUGGCCACUUACGCUAAUCCUGGAAGUAUGAUCACUUUUGAACCUGCCCCUUAACCUUGACGAGGAUACAAAAGUGAAAGCAUCAUCCCCCAAAG: 0.601
GCUCUGAGCAGUGGCAAUAGAAUGUCAACGGAUUGCAAUCAGAUGGCUCAACUCUGUGUCUCCUGAGCACCAGCAGCCAAGCCUGUUCAUGAUGAUGUGCACACAGUCAU: 0.405
CUGGCCUCUGGGGUCAUACUCACUUCUUUAGCCAGCCCCAUCCCCUCCACCCCACACCUGAGUUCUUGCCUCCUCCUUUUGGGGACACCCAAAACACUGCUUGUGAGAAG: 0.706

Series 3
Target: Histone acetyltransferase KAT6A, winged helix 2, GST fusion (KAT6A, Homo sapiens, UniProt Q92794, residues 85-181)
Method: protein binding microarray
Form: double-stranded DNA, one strand shown
Matrix: in vitro
Concentration: not given
Notes: 8-mer, flanks averaged, mean of 2 arrays, mostly near background
Reference: not given
Direction: higher = stronger binding
Measurement: E-score
Residues (chain): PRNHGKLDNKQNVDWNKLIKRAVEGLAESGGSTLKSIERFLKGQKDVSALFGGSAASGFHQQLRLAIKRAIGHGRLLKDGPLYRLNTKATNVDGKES
AACCGCGA: 0.286
CGGGGTGC: 0.0827
ATATACTA: -0.014
CTATCGCA: 0.147
CGGCTGTA: -0.0471
AGTTATTG: -0.0576
CTCCTAAA: -0.136
ACCAGCGA: 0.0188
CCATGTAG: -0.0964
AACTTAAA: -0.0986
GAACACAC: 0.0593
CAGTAGGA: -0.0989
AATAAATG: -0.143
CATCGCGA: 0.0614
GTTTGAAA: 0.131
ACCCTAAC: -0.0111
CCATCTCA: -0.0926
ACCCCAGT: -0.118
ACCGCCAG: 0.107
CTAACGTA: -0.0433

Series 4
Target: Sal-like protein 4, full length isoform A (SALL4, Homo sapiens, UniProt Q9UJQ4, residues 1-1053)
Chain of UniProt Q9UJQ4 (whole entry, looked up): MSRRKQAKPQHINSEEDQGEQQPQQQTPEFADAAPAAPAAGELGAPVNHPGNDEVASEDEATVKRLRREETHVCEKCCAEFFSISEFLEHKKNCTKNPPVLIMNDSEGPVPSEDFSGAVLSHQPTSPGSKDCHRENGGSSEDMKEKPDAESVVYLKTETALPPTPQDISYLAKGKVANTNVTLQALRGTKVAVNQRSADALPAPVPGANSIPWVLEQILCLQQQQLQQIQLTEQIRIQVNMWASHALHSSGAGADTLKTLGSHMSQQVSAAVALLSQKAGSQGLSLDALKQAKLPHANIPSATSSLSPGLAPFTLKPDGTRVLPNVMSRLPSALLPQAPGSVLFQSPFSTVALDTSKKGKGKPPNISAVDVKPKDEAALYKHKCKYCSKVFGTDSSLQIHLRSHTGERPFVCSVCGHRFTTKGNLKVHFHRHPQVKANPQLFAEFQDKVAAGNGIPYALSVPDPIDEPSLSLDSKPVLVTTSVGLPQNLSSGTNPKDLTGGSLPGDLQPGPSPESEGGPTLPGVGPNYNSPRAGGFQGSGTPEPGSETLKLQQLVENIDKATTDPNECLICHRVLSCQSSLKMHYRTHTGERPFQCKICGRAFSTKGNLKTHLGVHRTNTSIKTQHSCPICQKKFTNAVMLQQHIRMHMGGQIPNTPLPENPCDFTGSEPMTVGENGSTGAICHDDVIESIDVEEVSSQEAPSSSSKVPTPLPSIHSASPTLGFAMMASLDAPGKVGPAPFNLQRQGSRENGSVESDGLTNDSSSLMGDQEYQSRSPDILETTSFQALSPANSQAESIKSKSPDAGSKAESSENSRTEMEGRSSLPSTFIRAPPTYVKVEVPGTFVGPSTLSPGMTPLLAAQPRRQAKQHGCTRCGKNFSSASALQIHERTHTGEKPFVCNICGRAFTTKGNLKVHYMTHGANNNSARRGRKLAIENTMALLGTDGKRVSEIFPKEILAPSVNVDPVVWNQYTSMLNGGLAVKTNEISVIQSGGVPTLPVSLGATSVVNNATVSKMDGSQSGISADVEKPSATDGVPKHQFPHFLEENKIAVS
Method: universal PBM
Form: double-stranded DNA, one strand shown
Matrix: in vitro
Concentration: 600 nM
Notes: 8-mer, flanks averaged, mean of replicates
Direction: higher = stronger binding
Measurement: E-score
AGATATCG: 0.0339
GAAAAGCC: -0.188
CCGCGAAC: -0.274
GAGCCTGA: -0.195
ACGGGATC: -0.0626
ATAATAAC: 0.457
ACTTACGG: 0.0107
GTAGTGAC: -0.0971
ACCCAAGC: -0.309
CTGTCGCA: -0.123
ACAACGCC: -0.0916
TCACGGCA: -0.0789
TGAAACCA: 0.0559
ATAATTCA: 0.404
CACACCGA: -0.0976
GGATTCAC: -0.0149
AGGAAAAC: 0.0113
AGGACTCA: -0.101
ATTGGTCA: 0.0661
AACGATGA: 0.129
AACAGTCC: -0.0859
AACGGTAA: 0.0141
CTCCGGGA: -0.342
AGTGGTTA: 0.0874
GCATGACC: -0.315

Repeated from above (series 4):
ATTGGTCA: 0.0661
AACGATGA: 0.129
AACAGTCC: -0.0859
AACGGTAA: 0.0141
CTCCGGGA: -0.342
AGTGGTTA: 0.0874
GCATGACC: -0.315
